Published values gathered from unrelated publications.
Parts stem from different laboratories: compare values within a part only. Changes are numbered by the printed parent chain.

Series 1 — target: CCNA2, cyclin fold, Cln2 fusion (human); method: yeast growth competition, sequencing; sample: yeast; setting: strong parent motif; baseline: not given; reading: higher = stronger binding
Starting sequence: CDC6 docking peptide (human); TLKGRRLVFDNQL; partner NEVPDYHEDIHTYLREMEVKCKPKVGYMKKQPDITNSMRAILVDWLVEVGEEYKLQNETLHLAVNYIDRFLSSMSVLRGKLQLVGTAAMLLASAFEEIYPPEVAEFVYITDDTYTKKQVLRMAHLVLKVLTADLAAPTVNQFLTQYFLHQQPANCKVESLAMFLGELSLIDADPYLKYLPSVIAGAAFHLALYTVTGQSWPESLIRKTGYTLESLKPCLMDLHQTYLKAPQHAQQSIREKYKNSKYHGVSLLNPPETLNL
Change	normalised enrichment score
TLKNRRLVFDNQL [G4N]	1.2
TLKGRRLVSDNQL [F9S]	1.15
THKGRRLVFDNQL [L2H]	2.94
TLKGRWLVFDNQL [R6W]	-0.0499
TLKGRRLPFDNQL [V8P]	0.415
TLKGRRLVNDNQL [F9N]	0.675
TCKGRRLVFDNQL [L2C]	2.61
TLKGRRWVFDNQL [L7W]	1.77
TLKGRRLVFDNQP [L13P]	3.7
TLKGRRLVFNNQL [D10N]	2.79
TLKGRRLVFDNPL [Q12P]	3.04
TLKWRRLVFDNQL [G4W]	1.71
TLKGRSLVFDNQL [R6S]	0.414
TLKGRRLVFDNQR [L13R]	3.22
TLRGRRLVFDNQL [K3R]	2.93

Series 2 — method: EMSA with sequencing; form: double-stranded DNA, one strand shown; sample: in vitro; tested at: 10 and 20 nM; baseline: negative control set to 0; reading: higher = stronger binding
Target: Hepatocyte nuclear factor 3-alpha (Foxa1, Mus musculus, UniProt P35582, residues 1-468, full length assumed)
Setting: whole designed probe, mean of two concentrations, ends assumed
Residues (chain): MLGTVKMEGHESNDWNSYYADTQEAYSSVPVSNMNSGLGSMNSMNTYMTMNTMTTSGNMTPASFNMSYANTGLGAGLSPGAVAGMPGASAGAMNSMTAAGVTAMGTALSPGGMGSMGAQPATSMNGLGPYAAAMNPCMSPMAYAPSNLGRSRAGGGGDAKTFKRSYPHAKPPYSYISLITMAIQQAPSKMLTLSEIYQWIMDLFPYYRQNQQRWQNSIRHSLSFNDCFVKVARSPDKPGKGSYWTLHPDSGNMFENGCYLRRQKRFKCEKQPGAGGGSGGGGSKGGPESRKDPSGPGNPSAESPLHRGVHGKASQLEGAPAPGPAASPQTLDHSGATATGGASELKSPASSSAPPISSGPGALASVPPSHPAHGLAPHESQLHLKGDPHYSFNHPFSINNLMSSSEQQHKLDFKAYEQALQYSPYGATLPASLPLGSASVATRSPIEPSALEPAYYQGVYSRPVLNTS
Sequence	normalised bound fraction
GTGAGCGGTGCCCATTGATGGGGAACATCTTCCCCCTCTTCCTTGCCCCACCAGCTCACCTTCCCGGGTCAAAGTAAACAAGTGTTTACTTTGAAGCCGGCATTCGTTAACCCTCTTCTGGCGCAAACTGCTGTTTACTTTGGATGAATCATGGTCCTTTGGCGACGCCAGGCTCCGGGAGAGCAAAGCACCGTGTCAGGGCCATGATCCGGGGTGGCCTTTCACTGGGATCGTGGGGAC	0.511 ratio
GTGAGCGGTGCCCATTGATGGGGAACGTCCTTTTTAACACGCAGCGGTTGTGGGGACAAGGTTTCCGAGGAGGCGGGAGCGAGCGACGGCCCCCGCCTCCCACACGCCCTCTGCTTTGGTAATCTAGGAGACTCCCGCCCGCAGGCTGTAAATGAGGCACGAGCTTGGGGGCAGCGCCAGGGCGCCTGGCGTCACTGTTCAAAAAGGCCTCTTATTGGTTTTCACTGGGATCGTGGGGAC	-0.0697 ratio
GTGAGCGGTGCCCATTGATGGGGAACTTGAACTGCAGTATTTTATCAATCCTGAGTCTCAGGACACTGTTTGATGGAATTAAGTAAGGTATTATGTGTTAAAGCCTGTGTGGCTTTCCCTTGTTTACTTTGGGGGAAAGGATGACAGGGGCATATACAGTGTCTCAGTGCTAATACTCCATTATAGATTAACTCGGAGTGTCGGGAGATGGCTCACATTTTTCACTGGGATCGTGGGGAC	0.428 ratio

Series 3 — target: UBE2M UBC core domain (UniProt P61081); method: yeast two-hybrid; sample: yeast; setting: mostly zero background; baseline: not given; reading: higher = stronger interaction
B1: RNF121 RING domain (UniProt Q9H920); chain MPTKHLSDSVCAVCGQQIFVDVSEEGIIENTYRLSCNHVFHEFCIRGWCIVGKKQTCPYCKEKVDLKRMFS
B2: RNF133 RING domain (UniProt Q8WVZ7); chain DEEINPNGDSCVICFERYKPNDIVRILTCKHFFHKNCIDPWILPHGTCPICKCDILKVLGIQ
B3: ZMIZ2 RING domain (UniProt Q8NF64); chain GTIPGTPGPNGEDGVEQTAIKVSLKCPITFRRIQLPARGHDCRHIQCFDLESYLQLNCERGTWRCPVCNKTALLEGLEVDQYMLGILIYIQNSDYEEITIDPTCSWK
B4: DTX2 RING domain (UniProt Q86UW9); chain EELKVPPDEDCIICMEKLSTASGYSDVTDSKAIGSLAVGHLTKCSHAFHLLCLLAMYCNGNKDGSLQCPSCKTIYGEKTGTQ
B5: UBOX5 RING domain (UniProt O94941); chain EQPGSILGPECASCKRVFSPYFKKEPVYQLPCGHLLCRPCLGEKQRSLPMTCTACQRPVASQDVLR
B6: DZIP3 RING domain (UniProt Q86Y13); chain PDEEEEEEEPCVICHENLSPENLSVLPCAHKFHAQCIRPWLMQQGTCPTCRLHVLLPEEFP
Residues (chain): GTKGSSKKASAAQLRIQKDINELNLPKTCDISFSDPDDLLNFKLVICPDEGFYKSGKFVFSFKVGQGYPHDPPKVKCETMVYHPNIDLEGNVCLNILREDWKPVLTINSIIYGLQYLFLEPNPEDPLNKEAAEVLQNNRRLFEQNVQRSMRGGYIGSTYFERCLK
Molecule	lacZ reporter activity
B1 (RNF121 RING domain)	0
B2 (RNF133 RING domain)	0
KLRKLKEAMLCMVCCEEEINSTFCPCGHTVCCESCAAQLQSCPVCRSRVEHVQHVY (MYLIP RING domain (UniProt Q8WY64))	0
PEDRESLKSACVVCLSSFKSCVFLECGHVCSCTECYRALPEPKKCPICRQAITRVIPLY (MUL1 RING domain (UniProt Q969V5))	0
KETIKKTTKPCPRCHVPVEKNGGCMHMKCPQPQCRLEWCWNCGCEWNRVCMG (PRKN RING domain (UniProt O60260))	0
B3 (ZMIZ2 RING domain)	0
GSDDEEIPFKCFICRQSFQNPVVTKCRHYFCESCALQHFRTTPRCYVCDQQTNGVFNPA (RNF113A RING domain (UniProt O15541))	0
B4 (DTX2 RING domain)	0
B5 (UBOX5 RING domain)	0
NLSELTPYILCSICKGYLIDATTITECLHTFCKSCIVRHFYYSNRCPKCNIVVHQTQPLY (PCGF6 RING domain (UniProt Q9BYE7))	0
B6 (DZIP3 RING domain)	0

Series 4 — method: DHFR PCA, dose-response; sample: yeast; together with: (+)-ABA, dose series; reading: lower = more sensitive
Target: ABI1, truncated, D143A, DHFR fusion (Arabidopsis thaliana, UniProt P49597)
Setting: Hill fit, not affinity, not high confidence
Starting sequence: PYL1, truncated, DHFR fusion (Arabidopsis thaliana, UniProt Q8VZS8); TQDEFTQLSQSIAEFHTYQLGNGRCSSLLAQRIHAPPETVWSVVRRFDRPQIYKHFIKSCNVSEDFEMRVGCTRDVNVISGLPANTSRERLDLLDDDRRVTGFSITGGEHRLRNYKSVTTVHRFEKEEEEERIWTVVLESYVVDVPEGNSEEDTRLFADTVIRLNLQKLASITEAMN
Change	ABA EC50 [µM]
V100P	2.39
N85Q	3.27
A170I	1470
V121K	9.05
S59K	7.54
F157N	8.41
P50V	143
T135H	0.951
T135M	13
F47N	0.192
R123G	6.52
Y141V	67.7

Series 5 — method: RNA Bind-n-Seq; form: RNA; sample: in vitro; tested at: 365 nM; baseline: no-protein control; reading: higher = stronger binding
Target: RNA binding protein fox-1 homolog 2, RRM domain, GST-SBP tag (RBFOX2, Homo sapiens, UniProt O43251-10, residues 100-194)
Setting: natural RNA segment, single round, ends assumed
Constant ends, left off below: GGGAGUUCUACAGUCCGACGAUC … UGGAAUUCUCGGGUGCCAA
Residues (chain): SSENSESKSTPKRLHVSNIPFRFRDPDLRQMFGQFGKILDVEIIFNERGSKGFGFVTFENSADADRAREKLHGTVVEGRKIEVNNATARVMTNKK
Sequence	RBNS enrichment (R)
AGAGUGCCUGGCAAAAAGAUCAAAUGGGGCUGGGACUUCUCAUUGGCCAACCUGCCUUUCCCCAGAAGGAGUGAUUUUUCUAUCGGCACAAAAGCACUAUAUGGACUGGU	1.33
ACCCACAGAUGGCCCUGGGAAUCAAUUCCUCAGGAAUUGCCCUCAAGAACUCUGCUUCUUGCUUUGCAGAGUGCCAUGGUCAUGUCAUUCUGAGGUCACAUAACACAUAA	0.192
AGCUCCACCUGCAUCCUCCAGGAGACCUCCCUGUGAUGUUGACUCAGGACCCCGCCUCUGUCCUCACUGUGCCAGGCCAUAGCCAGAGGCCACCCUGUAGUACAGGGAUG	0.418
CAUGCAAAAGGGAACGGGUGCACCAGAGACCCCUGUUUUGGCUGACAGACCAUAUGUCCCACCAGCUGGGGAAUCUGACAAGAGGACAUAGGUGGCACUCUUUUUUUAAA	0.767
AAUGUCAGGUGCUCUUGUCUGAUGUAGAAGUCUUUGAUGAGGAAGCCUUCUUUCCCUUGGGGUCUCUGGAAGAUCCUAGCAGACUUUGCCUGUGGGCCUGCUCAGCAUGA	14.5
GGUGAGAACCAUCGCUCCUUUGCCAGGUAACUCUUGGGAGCCUCUCCCCCUUCUGCAUAGAGGAAAUCCCAGUGUGUGACAGCCCUUAAGGUUCCUGUGGACUUUGUGUA	0.416
CAUCUGAAUAAUCAAUGUAAAUAUUUUCUUUCAAAGUUGUAAGUUUUCAUAUCAUGUGCUGUAAAGUUUUCCUAAAUGAGGCUUUAACGUAAACACUGGUGACAUAAACC	0.511
GUGAGAUAAUUUCGGUUCAGUAAAUUGGCCAAUCUUUUUAUUUUUCUAAGACACAGAAAUGUAUUUAAUAAAAACCUCGAGAGAGUGAUGGGUGGAACCCCUUCUCCUUG	0.573

For quick reference, copied from above (series 4):
Change	ABA EC50 [µM]
V100P	2.39
S59K	7.54
N85Q	3.27
F47N	0.192
A170I	1470
V121K	9.05
P50V	143
Y141V	67.7
